Measured values pooled from the literature.
± gives the spread as reported. In brackets after ≈: the same amount, converted by molar mass.

Compound | organism | test | test system | conditions | scale | quantity | result
CN[C@@H]1[C@H](O)[C@H](NC)[C@H]2O[C@]3(O)[C@H](O[C@@H]2[C@H]1O)O[C@H](C)C[C@@]3(O)CNCc1ccc(OC(F)(F)F)cc1 | Neisseria gonorrhoeae | – | ATCC 49226 | 40 µg per disc | – | inhibition zone diameter | 16 to 20 mm
CC[C@@H](C)[C@@H](NC(=O)[C@@H](C)NC(=O)[C@@H](CCCCN)NC(=O)[C@@H](CC(C)C)NC(=O)[C@@H](C)NC(=O)[C@H](NC(=O)[C@@H](Cc1c[nH]cn1)NC(=O)[C@@H](CC(C)C)NC(=O)[C@H](NC(=O)[C@H](NC(=O)[C@@H](CCCCN)NC(=O)[C@@H](CCCCN)NC(=O)[C@@H](C)NC(=O)[C@@H](CO)NC(=O)[C@@H](CCCCN)NC(=O)[C@@H](Cc1ccccc1)NC(=O)[C@H](NC(=O)[C@@H](CCCCN)NC(=O)[C@@H](CC(C)C)NC(=O)[C@@H](Cc1ccccc1)NC(=O)[C@@H](CO)NC(=O)[C@@H](CCCCN)NC(=O)[C@@H](Cc1c[nH]c2ccccc12)NC(=O)[C@@H](CCCCN)NC(C)=O)[C@H](C)O)[C@H](C)O)C(C)C)[C@H](C)O)C(=O)N[C@H](CO)C(=O)N[C@H](CO)C(N)=O | Rhizopus oryzae | – | AZN 8892 | 48 h, 30 °C | – | MIC50 | 18.8 µg/mL (≈ 6.29 µM)
CC(C)C[C@H](NC(=O)[C@H](CC(=O)O)NC(=O)[C@H](CC(C)C)NC(=O)[C@H](CC(=O)O)NC(=O)CNC(=O)[C@@H]1CCCN1C(=O)[C@H](CCCCN)NC(=O)[C@H](CC(C)C)NC(=O)[C@H](Cc1c[nH]c2ccccc12)NC(=O)[C@@H]1CCCN1)C(=O)O | dengue virus 2 | RT-qPCR | LLC-MK2, New Guinea C | maximal non-toxic, 24 h | baseline: untreated | viral RNA reduction | 28.6 ± 16.3%
CN[C@@H]1[C@H](O)[C@H](NC)[C@H]2O[C@]3(O)[C@H](O[C@@H]2[C@H]1O)O[C@H](C)C[C@]3(O)CNCc1ccc(F)cc1 | Neisseria gonorrhoeae | – | ATCC 49226 | 40 µg per disc | – | inhibition zone diameter | 0 mm
CC[C@H](C)[C@H](NC(=O)[C@H](CCCCN)NC(=O)[C@H](CCCCN)NC(=O)[C@H](CC(C)C)NC(=O)[C@H](CCCCN)NC(=O)[C@H](CCC(=O)O)NC(=O)[C@H](CCCCN)NC(=O)[C@@H](NC(=O)[C@H](CCCCN)NC(=O)[C@H](CC(N)=O)NC(=O)[C@H](CCCNC(=N)N)NC(=O)[C@H](Cc1ccccc1)NC(=O)[C@H](CCCCN)NC(=O)[C@H](CCCNC(=N)N)NC(=O)[C@H](CC(C)C)NC(=O)[C@H](CCCNC(=N)N)NC(=O)[C@H](CCCCN)NC(=O)[C@H](CCCNC(=N)N)NC(=O)[C@@H](N)CC(C)C)[C@@H](C)CC)C(=O)NCC(=O)N[C@@H](CCC(N)=O)C(=O)N[C@@H](CCCCN)C(=O)N[C@H](C(=O)N[C@@H](CCC(N)=O)C(=O)NCC(=O)N[C@@H](Cc1ccccc1)C(=O)N[C@H](C(=O)N1CCC[C@H]1C(=O)N[C@@H](CCCCN)C(=O)N[C@@H](CC(C)C)C(=O)O)C(C)C)[C@@H](C)CC | Salmonella | inhibition zone | ZQ.17N | LB agar, overnight | – | lethal concentration | 3.54 µM
CCn1c2ccccc2c2cc(/C=N/NC(=O)Cn3ccc(=O)c4ccccc43)ccc21 | Alternaria solani | microbial growth | – | 50 µg/mL | – | inhibition | 46.2%
CC(=O)OC1C(C)C(OC2CC3OCOC3C(C)O2)C=COC2(C)Oc3c(C)c(O)c4c(c3C2=O)C(=O)C=C(NC(=O)C(C)=CC=CC(C(C)OC(=O)C(C)(C)CC(=O)O)C(O)C(C)C(O)C1C)C4=O (stereo not drawn) | Bacillus subtilis | – | rifampicin-resistant rpoB H482R | concentration not given | – | growth inhibition | inhibited
CC(C)C(C(=O)N[C@@H](Cc1ccccc1)[C@H](O)CN1CCN(Cc2ccc(Br)cc2)CC1)N1C(=O)c2ccccc2C1=O (stereo partly drawn) | Plasmodium berghei | – | NK-65, mouse | subcutaneous, 100 mg/kg, four days | – | mean survival time | 20 days
COc1ccc(C2=Nn3c(N/N=C4/C(=O)Nc5ccc(C)cc54)nnc3SC2)cc1 | Gallus gallus | angiogenesis, HET-CAM | chorioallantoic membrane | 40 µM | baseline: DMSO control | capillary number increase | 35%
CC[C@H](C)[C@H](NC(=O)[C@H](CCCCN)NC(=O)[C@H](CCCCN)NC(=O)[C@H](CC(C)C)NC(=O)[C@H](CCCCN)NC(=O)[C@H](CCC(=O)O)NC(=O)[C@H](CCCCN)NC(=O)[C@@H](NC(=O)[C@H](CCCCN)NC(=O)[C@H](CC(N)=O)NC(=O)[C@H](CCCNC(=N)N)NC(=O)[C@H](Cc1ccccc1)NC(=O)[C@H](CCCCN)NC(=O)[C@H](CCCNC(=N)N)NC(=O)[C@H](CC(C)C)NC(=O)[C@H](CCCNC(=N)N)NC(=O)[C@H](CCCCN)NC(=O)[C@H](CCCNC(=N)N)NC(=O)[C@H](CC(C)C)NC(=O)[C@@H](N)CCCNC(=N)N)[C@@H](C)CC)C(=O)NCC(=O)N[C@@H](CCC(N)=O)C(=O)N[C@@H](CCCCN)C(=O)N[C@H](C(=O)N[C@@H](CCC(N)=O)C(=O)NCC(=O)N[C@@H](Cc1ccccc1)C(=O)N[C@H](C(=O)N1CCC[C@H]1C(=O)N[C@@H](CCCCN)C(=O)N[C@@H](CC(C)C)C(=O)N[C@@H](CCC(N)=O)C(=O)N1CCC[C@H]1C(=O)N[C@@H](CO)C(=O)N[C@@H](CCCCN)C(=O)N[C@@H](CCC(N)=O)C(=O)N[C@@H](CO)C(=O)O)C(C)C)[C@@H](C)CC | Bacillus subtilis | inhibition zone | CGMCC 1.243 | – | – | lethal concentration | 2.36 µM
O=C(NCc1ccc(F)cc1)c1nc(NCCO)c2cccnc2c1O | Human betaherpesvirus 5 | viral replication, inhibitor | HFF | 10 µM | – | inhibition | 20%
CC[C@H](C)[C@H](NC(=O)[C@@H](NC(=O)CN)C(C)C)C(=O)N[C@@H](Cc1ccccc1)C(=O)N[C@@H](CC(N)=O)C(=O)N[C@@H](C)C(=O)N[C@@H](CC(C)C)C(=O)N[C@@H](CCCCN)C(=O)NCC(=O)N[C@H](C(=O)N[C@@H](C)C(=O)N[C@@H](CCCCN)C(=O)N[C@H](C(=O)N[C@H](C(=O)N[C@@H](C)C(=O)N[C@@H](C)C(=O)N[C@@H](CCC(N)=O)C(=O)N[C@@H](CC(C)C)C(=O)N[C@@H](CC(C)C)C(=O)N[C@@H](CCCCN)C(=O)N[C@@H](CCCCN)C(=O)N[C@@H](C)C(=O)N[C@@H](CCCNC(=N)N)C(=O)N[C@H]1CSSC[C@@H](C(=O)O)NC(=O)[C@H](CO)NC(=O)[C@H](CCCCN)NC(=O)[C@H](CC(=O)O)NC(=O)[C@H](CC(C)C)NC(=O)[C@H](CCCCN)NC1=O)C(C)C)[C@@H](C)O)C(C)C | Staphylococcus aureus | – | NCTC 10788 | together with: horse serum 10% | – | MIC | 2 µM
CN(C)CCCOc1ccc2cc1Oc1ccc(cc1)CC1c3c(cc(OCCCN(C)C)c4c3Oc3cc5c(cc3O4)CCN(C)C5C2)CCN1C (stereo not drawn) | Plasmodium berghei | – | ANKA, mice | intraperitoneal, 20 mg/kg daily for 4 days | baseline: untreated | survival increase | 5 days
CC1=C[C@@H](C)[C@H]2[C@@H]3C(=O)C(Cl)(Cl)C(=O)[C@H](C)C(=O)O[C@@H](C)/C=C/C=C\[C@@H](C)[C@@H]3C=C[C@@H]2C1 | Staphylococcus aureus | – | Newman | – | – | maximum tolerated concentration | 1 µg/mL
CCCCCCOP(=O)(O)Oc1c2c(c(OP(=O)(O)OCCCCCC)c3c1C1CC3c3cc4c(cc31)C1CC4c3ccccc31)C1CC2c2cc3c(cc21)C1CC3c2ccccc21 | measles virus | viral infection, flow cytometry | A549, vaccine strain GFP | 2 days, virus pre-incubated 30 min 37 °C | – | IC50 | 4.6 µM
Nc1ccn(C[C@@H](CO)OCP(=O)(O)OCCCS(=O)(=O)CCCCCCCCCCCCCC2CCC2)c(=O)n1 | Betapolyomavirus hominis | qPCR | Gardner | – | baseline: CC50 over EC50 | selectivity index | 70
OC(CN1CCC2(CC1)CC(O)c1ccc3ccccc3c1O2)c1ccc(F)c(F)c1 (stereo not drawn) | Plasmodium berghei | – | ANKA, BALB/c mice | oral, dose not given | – | survival time | 12 days
CC[C@H](C)[C@H](NC(=O)[C@H](CCCCN)NC(=O)[C@H](CCCCN)NC(=O)[C@H](CC(C)C)NC(=O)[C@H](CCCCN)NC(=O)[C@H](CCC(=O)O)NC(=O)[C@H](CCCCN)NC(=O)[C@@H](NC(=O)[C@H](CCCCN)NC(=O)[C@H](CC(N)=O)NC(=O)[C@H](CCCNC(=N)N)NC(=O)[C@H](Cc1ccccc1)NC(=O)[C@H](CCCCN)NC(=O)[C@H](CCCNC(=N)N)NC(=O)[C@H](CC(C)C)NC(=O)[C@H](CCCNC(=N)N)NC(=O)[C@H](CCCCN)NC(=O)[C@H](CCCNC(=N)N)NC(=O)[C@H](CC(C)C)NC(=O)CN)[C@@H](C)CC)C(=O)NCC(=O)N[C@@H](CCC(N)=O)C(=O)N[C@@H](CCCCN)C(=O)N[C@H](C(=O)N[C@@H](CCC(N)=O)C(=O)NCC(=O)N[C@@H](Cc1ccccc1)C(=O)N[C@H](C(=O)N1CCC[C@H]1C(=O)N[C@@H](CCCCN)C(=O)N[C@@H](CC(C)C)C(=O)N[C@@H](C)C(=O)N1CCC[C@H]1C(=O)N[C@@H](CCCNC(=N)N)C(=O)N[C@H](C(=O)N[C@@H](CC(=O)O)C(=O)N[C@@H](Cc1ccc(O)cc1)C(=O)O)[C@@H](C)O)C(C)C)[C@@H](C)CC | Bacillus megaterium | inhibition zone | CGMCC 1.046 | – | – | lethal concentration | 1.4 µM
C[C@@](O)(C(F)F)[C@H](NC(=O)c1ccc(C#CC#CC2CC2)cc1)C(=O)NO | Achromobacter xylosoxidans | agar dilution | clinical isolates | – | – | MIC50 | 0.125 µg/mL (≈ 0.332 µM)
CC[C@H](C)[C@H](NC(=O)[C@H](CCCCN)NC(=O)[C@H](CCCCN)NC(=O)[C@H](CC(C)C)NC(=O)[C@H](CCCCN)NC(=O)[C@H](CCC(=O)O)NC(=O)[C@H](CCCCN)NC(=O)[C@@H](NC(=O)[C@H](CCCCN)NC(=O)[C@H](CC(N)=O)NC(=O)[C@H](CCCNC(=N)N)NC(=O)[C@H](Cc1ccccc1)NC(=O)[C@H](CCCCN)NC(=O)[C@H](CCCNC(=N)N)NC(=O)[C@H](CC(C)C)NC(=O)[C@H](CCCNC(=N)N)NC(=O)[C@H](CCCCN)NC(=O)[C@H](CCCNC(=N)N)NC(=O)[C@H](CC(C)C)NC(=O)[C@@H](N)CC(C)C)[C@@H](C)CC)C(=O)NCC(=O)N[C@@H](CCC(N)=O)C(=O)N[C@@H](CCCCN)C(=O)N[C@H](C(=O)N[C@@H](CCC(N)=O)C(=O)NCC(=O)N[C@@H](Cc1ccccc1)C(=O)N[C@H](C(=O)N1CCC[C@H]1C(=O)N[C@@H](CCCCN)C(=O)N[C@@H](CC(C)C)C(=O)N[C@H](C(=O)N1CCC[C@H]1C(=O)N[C@@H](CCCNC(=N)N)C(=O)N[C@H](C(=O)N[C@@H](CCC(=O)O)C(=O)N[C@@H](CO)C(=O)O)[C@@H](C)O)C(C)C)C(C)C)[C@@H](C)CC | Bacillus subtilis | inhibition zone | CGMCC 1.243 | – | – | lethal concentration | 1.8 µM
COc1ccc(C2=[N+]([O-])c3ccccc3N3CCN=C23)cc1 | Fusobacterium nucleatum | microbial growth | ATCC25586 | – | – | MIC | ≤ 0.06 µg/mL

Excerpt of the above:
Compound | organism | test | test system | conditions | scale | quantity | result
CN[C@@H]1[C@H](O)[C@H](NC)[C@H]2O[C@]3(O)[C@H](O[C@@H]2[C@H]1O)O[C@H](C)C[C@@]3(O)CNCc1ccc(OC(F)(F)F)cc1 | Neisseria gonorrhoeae | – | ATCC 49226 | 40 µg per disc | – | inhibition zone diameter | 16 to 20 mm
